Measurements collected from several papers.
A part holds a random share of what one study measured.

Set 1
Target: Replicase polyprotein 1ab, main protease (rep, Severe acute respiratory syndrome coronavirus 2, UniProt P0DTD1)
Read-out: enzyme activity
Mode: inhibitor
Concentration: 20 µM
Notes: primary screen
| SMILES | inhibition [%] |
| --- | --- |
| CC(=O)N[C@H](Cc1ccc2ccccc2c1)C(=O)N[C@H](Cc1ccc(Cl)cc1)C(=O)N[C@H](Cc1cccnc1)C(=O)N[C@@H](CO)C(=O)N[C@@H](Cc1ccc(NC(=O)[C@@H]2CC(=O)NC(=O)N2)cc1)C(=O)N[C@H](Cc1ccc(NC(N)=O)cc1)C(=O)N[C@@H](CC(C)C)C(=O)N[C@@H](CCCCNC(C)C)C(=O)N1CCC[C@H]1C(=O)N[C@H](C)C(N)=O | 34.6 |
| [NH-]c1c[n+](N2CCOCC2)no1 | 73.9 |
| CC(C)=CCC/C(C)=C/CC/C(C)=C/CC/C(C)=C/CC1=C(C)C(=O)c2ccccc2C1=O | 26.3 |

Set 2
Target: RING finger protein unkempt homolog, zinc fingers 1-6, GST-SBP tag (UNK, Homo sapiens, UniProt Q9C0B0, residues 30-357)
Method: RNA Bind-n-Seq
Molecule type: RNA
Sample: in vitro
Concentration: not given
Notes: RNA with constant flanks, human and mouse sites, ends assumed
Relative to: input RNA pool
Direction: higher = stronger binding
Constant ends, left off below: GGGAGUUCUACAGUCCGACGAUC … CAACAGAGGAUUGAGCAUCA
Residues (chain): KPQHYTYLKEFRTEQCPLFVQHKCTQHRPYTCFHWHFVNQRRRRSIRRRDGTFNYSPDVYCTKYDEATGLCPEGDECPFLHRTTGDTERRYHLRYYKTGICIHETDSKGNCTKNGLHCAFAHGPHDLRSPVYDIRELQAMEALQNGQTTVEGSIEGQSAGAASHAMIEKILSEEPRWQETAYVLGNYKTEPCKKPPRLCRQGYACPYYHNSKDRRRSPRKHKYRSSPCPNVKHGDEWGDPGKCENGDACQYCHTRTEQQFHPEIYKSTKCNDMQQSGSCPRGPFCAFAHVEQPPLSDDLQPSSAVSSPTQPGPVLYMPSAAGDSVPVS
| Oligonucleotide | bound/input enrichment [ratio] |
| --- | --- |
| GAAGAAGCACCAAGCACUUCAGGAAUGGGUUUCCAUGCUCCAAAAAUUGGUAGCAAUGGUGUCGAGAUGGCAGCCAAAUUUCCCAGUGGUUCUCAGAGGGCGAGAGUAGUGAAUACAGAC | 0.239 |
| AAUGAGGCCUCACCCCUGGACCCCAUUACUGAGGAAGAUGAGAAAUCCGACCAGUCAGGUAGUAAGCUGCUCCCAGGCAAGAAGUCUUCAGAACGGCCUAGUCUCUUCCAGACAGACUUG | 0.131 |
| GUGGGCUUCUGGAGGGCCGCUUUCGCCUGUCCCACGUCCUGCAAAUGCAGUGCCUCUCGGAUCUGGUGCAGCGACCCUUCUCCUGGCAUCGUGGCAUUUCCGAGAUUGGAGCCUAACAGU | 0.0938 |
| CUCAUGGCUGCAAUGGAGAUUUUCUCAGCUCAACAACAGGAAGACAUUAAGGAUGAGGAUGAACGUGAAGCCAGAGAAAAUGUGAAGAGAGAGCAAGAUGAGGCCUAUCGCCUUUCCCUC | 0.123 |
| GAGUACAUUGUCUAUGAUAUUGCUCAGGUAAAUCUGAAGUAUCUGCUGAAACUGAAAUUCAAUUUUAAGACCUCCCUGUGGUAAUUGGGAGAGGUAGCCGAGUCACACCCGGUGGCUCUG | 0.152 |
| UGAGAAUAAUCCUUUUUUUUUCACUAAUGGCAUUGAUGACAUGUUUGAAUCCUGUGUGUUGCAUUUAGAAAAGUAUUCUGAUGACUGUUAUAAACAGUGUGGUGUGAGGCCAUGGACUUC | 1.13 |
| AAAAUAGUCCGAUGCCAUGAACAUAUAGAAAUCCUUACAGUAAAUGGAGAAUUACUCUUUUUUAGACAAAGAGAAGGGCCUUUUUAUCCAACCCUAAGAUUACUUCACAAAUAUCCUUUU | 0.731 |
| UUAGAAUGUUAUUUAGACCAAGUUUAGCUUUUAGAGUCCAGGUCUGGUUAAUUGCCAGGGUAGCAAAGAAUCGCAUGCACCAAUGUAAACAGGAGUCAGAAUGCAUUAUUAGUCAAAGAU | 1.66 |

Set 3
Target: Centromere-binding protein 1, full length, N-terminal tag (CBF1, Saccharomyces cerevisiae, UniProt P17106, residues 1-351)
Sequence of UniProt P17106 (whole entry, looked up): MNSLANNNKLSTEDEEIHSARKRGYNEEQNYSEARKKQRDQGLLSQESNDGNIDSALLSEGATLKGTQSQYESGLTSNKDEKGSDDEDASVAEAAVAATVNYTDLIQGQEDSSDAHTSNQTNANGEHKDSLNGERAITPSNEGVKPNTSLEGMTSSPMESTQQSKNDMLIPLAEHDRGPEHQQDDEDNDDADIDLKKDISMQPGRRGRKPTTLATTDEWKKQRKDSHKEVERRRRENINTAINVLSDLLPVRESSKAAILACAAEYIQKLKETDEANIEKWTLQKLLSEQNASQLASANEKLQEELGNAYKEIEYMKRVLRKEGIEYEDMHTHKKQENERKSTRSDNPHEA
Method: protein-binding microarray
Molecule type: double-stranded DNA, one strand shown
Sample: in vitro
Concentration: 0.8 µM
Notes: whole 60-bp probe, no competitor
Direction: higher = stronger binding
Constant ends, left off below: … GTCTTGATTCGCTTGACGCTGCTG
| Oligonucleotide | fluorescence intensity |
| --- | --- |
| CTATCCTTTCTTAGCTTGGTGACGGAATATATTTTC | 530 a.u. |
| CTAATAGGAACTTCTCACGCAATAATTTTAAAGTTC | 509 a.u. |
| CTAAAACCGAGAGGTGACGTGAAATTCTTCCCATTC | 549 a.u. |
| CTATACAAAAAAGAGCACGCTGCTTTATTTATATTC | 587 a.u. |
| GAACGTTCTTTTTTTCGCGTGCTGTGCAAGAAATAG | 589 a.u. |
| GAAAGTCTCATTGCCTTCGTGCCAAAAAATCTGTAG | 504 a.u. |
| GAATTTTTTCCGCTCGTCGTGGTGGCATGCGCTTAG | 532 a.u. |
| GAAACGCGTAAACGTGATGTGATATACGGAAGATAG | 2570 a.u. |

Set 4
Target: Replicase polyprotein 1ab, polymerase (rep, Severe acute respiratory syndrome coronavirus 2, UniProt P0DTD1)
Read-out: enzyme activity
Mode: inhibitor
Concentration: 20 µM
| SMILES | inhibition |
| --- | --- |
| O=C1Nc2ccccc2C2(CCN(CCc3ccc(C(F)(F)F)cc3)CC2)O1 | -7.63% |
| C[N+](C)(C)CCCCCCCCCC[N+](C)(C)C | -4.99% |
| O=C(/C=C/c1ccccc1)NCCO | -3.85% |
| [N-]=[N+]=N[C@]1(CO)O[C@@H](n2ccc(N)nc2=O)[C@@H](O)[C@@H]1O | -6.26% |
| CN1CCN(c2cc(-c3ccccc3)nc(N)n2)CC1 | -4.91% |
| CC(Oc1ccc(O)cc1)(P(=O)(O)O)P(=O)(O)O | -1.43% |
| COC(=O)C1=C(C)NC(C)=C(C(=O)NCCCN2CCC(c3ccccc3)(c3ccccc3)CC2)C1c1ccc([N+](=O)[O-])cc1 (stereo not shown) | 6.42% |
| CC(C)Cc1ccc([C@H](C)C(=O)O)cc1 | -0.8% |
| Cn1nnnc1SCC1=C(C(=O)O)N2C(=O)[C@@H](NC(=O)[C@H](OC=O)c3ccccc3)[C@H]2SC1 | 19.4% |
| CCOC(=O)[N-]c1c[n+](N2CCOCC2)no1 | 16.1% |
| O=[N+]([O-])c1ccc(Cl)c([N+](=O)[O-])c1 | 4.5% |
| CC(C)c1onc(-c2c(Cl)cccc2Cl)c1COc1ccc(/C=C/c2cccc(C(=O)O)c2)c(Cl)c1 | 1.07% |
| COc1cc(CN2CCN(c3ccc(F)cc3)CC2)cc(OC)c1OC | 4.32% |
| CC[C@H](C)[C@@H]1NC(=O)[C@H](Cc2ccc(OC)cc2)NC(=O)CCCSC[C@@H](C(=O)N2CCC[C@H]2C(=O)N[C@@H](CC(C)C)C(=O)NCC(N)=O)NC(=O)[C@H](CC(N)=O)NC(=O)[C@H](CCC(N)=O)NC1=O | 8.35% |
| COc1cc(COc2cc(N)c(Cl)cc2C(=O)CCC2CCN(CCNS(C)(=O)=O)CC2)cc(OC)c1 | 3.09% |
| CCc1cc(C(N)=S)ccn1 | 7.42% |
| C#Cc1cccc2c1c(C(=O)c1ccc(Cn3c(C)nc4cnccc43)c(F)c1)cn2C(=O)N(C)C | -7% |
| COc1ccc(CCc2nc3cc(-c4c(C)noc4C)ccc3n2C[C@H](C)N2CCOCC2)cc1Cl | -4.93% |
| CC1(C)C(=O)N(CCN2CCC(C(=O)c3ccc(F)cc3)CC2)c2ccccc21 | -0.07% |
| CCC[C@@H](NC(=O)N1C(=O)C(CC)(CC)[C@@H]1Oc1ccc(C(=O)N2CCN(C)CC2)cc1)c1ccc2c(c1)OCO2 | 1.02% |
| CSc1cc2c(cc1C(F)(F)F)N(C(=O)Nc1cccnc1)CC2 | -4.4% |
| CC(C)CCNc1ncccc1C(=O)N1CCN(Cc2ccccc2)CC1 | -3.46% |

Set 5
Target: Probable WRKY transcription factor 11, DNA-binding domain (WRKY11, Arabidopsis thaliana, UniProt Q9SV15, residues 228-325)
Method: DNA-protein interaction ELISA
Molecule type: double-stranded DNA, one strand shown
Sample: in vitro, bacterial lysate
Concentration: not given
Notes: whole dsDNA probe, crude lysate protein
Relative to: highest signal in screen
Direction: higher = stronger binding
Construct (chain): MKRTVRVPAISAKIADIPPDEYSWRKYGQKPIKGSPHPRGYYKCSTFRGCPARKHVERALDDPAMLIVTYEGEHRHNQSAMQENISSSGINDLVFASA
| Oligonucleotide | relative absorbance |
| --- | --- |
| AAAAAAATCCGATCGATGCATATATAAAA | 18.7 % of maximum |
| AAAAAATGCTATCCGTGTCTATGCCAAAAA | 14.1 % of maximum |
| AAAAAACACTCACACCTATACGGCTCAAAA | 14.4 % of maximum |

Single results of other studies
| Molecule | tested on | assay | system | setting | scale | measurement | result |
| --- | --- | --- | --- | --- | --- | --- | --- |
| CC(C)OC(=O)C(C)(C)Oc1ccc(C(=O)c2ccc(Cl)cc2)cc1 | HEK-293T | pseudovirus infection, FDA-approved drug library screen | VSV pseudotyped with SARS-CoV-2 spike | 10 µM, 16 h | relative to: vehicle-treated | GFP-positive cells | 79.5% |
| speG (Vibrio cholerae, UniProt Q9KL03) | CC(=O)SCCNC(=O)CCNC(=O)[C@H](O)C(C)(C)COP(=O)(O)OP(=O)(O)OC[C@H]1O[C@@H](n2cnc3c(N)ncnc32)[C@H](O)[C@@H]1OP(=O)(O)O | steady-state kinetics | – | pH 9, 37 °C | – | K0.5 | 1210 µM |

Repeated from above (set 5):
| Oligonucleotide | relative absorbance |
| --- | --- |
| AAAAAAATCCGATCGATGCATATATAAAA | 18.7 % of maximum |
| AAAAAATGCTATCCGTGTCTATGCCAAAAA | 14.1 % of maximum |
| AAAAAACACTCACACCTATACGGCTCAAAA | 14.4 % of maximum |
